Measured values from different studies.
Every numbered part comes from another study and shows a few of its results, in no order.

Block 1 — method: aptamer microarray, sandwich; molecule type: DNA with 2'F-ANA; matrix: in vitro; concentration: 200 nM; together with: Cy3 exosite-II aptamer, 400 nM; direction: higher = stronger binding
Target: Prothrombin, mature alpha-thrombin (F2, Homo sapiens, UniProt P00734)
Notes: whole 15-mer aptamer, many near background
Oligonucleotide | mean fluorescence intensity
GGTTGGTGTGGTTGG (2'F-ANA at 1 2 3 4 7 10 11 12 13 14) | 54.9 a.u.
GGTTGGTGTGGTTGG (2'F-ANA at 2 5 6 7 8 10 11 12 14 15) | 189 a.u.
GGTTGGTGTGGTTGG (2'F-ANA at 2 3 4 5 7 9 10 12 15) | 62.2 a.u.

Block 2 — method: universal PBM; molecule type: double-stranded DNA, one strand shown; matrix: in vitro; concentration: not given; direction: higher = stronger binding
Target: Sal-like protein 4, full length isoform B (SALL4, Homo sapiens, UniProt Q9UJQ4-2, residues 1-616)
Notes: 8-mer, flanks averaged, mean of replicates
Oligonucleotide | E-score
TGACTTAA | 0.129
GCGATGCA | -0.231
GTACCCAA | -0.176

Block 3 — method: protein-binding microarray; molecule type: double-stranded DNA, one strand shown; matrix: in vitro; concentration: not given; direction: higher = stronger binding
Target: Transcription factor Sp1 (SP1, Homo sapiens, UniProt P08047, residues 1-785, full length assumed)
Chain of UniProt P08047 (whole entry, looked up): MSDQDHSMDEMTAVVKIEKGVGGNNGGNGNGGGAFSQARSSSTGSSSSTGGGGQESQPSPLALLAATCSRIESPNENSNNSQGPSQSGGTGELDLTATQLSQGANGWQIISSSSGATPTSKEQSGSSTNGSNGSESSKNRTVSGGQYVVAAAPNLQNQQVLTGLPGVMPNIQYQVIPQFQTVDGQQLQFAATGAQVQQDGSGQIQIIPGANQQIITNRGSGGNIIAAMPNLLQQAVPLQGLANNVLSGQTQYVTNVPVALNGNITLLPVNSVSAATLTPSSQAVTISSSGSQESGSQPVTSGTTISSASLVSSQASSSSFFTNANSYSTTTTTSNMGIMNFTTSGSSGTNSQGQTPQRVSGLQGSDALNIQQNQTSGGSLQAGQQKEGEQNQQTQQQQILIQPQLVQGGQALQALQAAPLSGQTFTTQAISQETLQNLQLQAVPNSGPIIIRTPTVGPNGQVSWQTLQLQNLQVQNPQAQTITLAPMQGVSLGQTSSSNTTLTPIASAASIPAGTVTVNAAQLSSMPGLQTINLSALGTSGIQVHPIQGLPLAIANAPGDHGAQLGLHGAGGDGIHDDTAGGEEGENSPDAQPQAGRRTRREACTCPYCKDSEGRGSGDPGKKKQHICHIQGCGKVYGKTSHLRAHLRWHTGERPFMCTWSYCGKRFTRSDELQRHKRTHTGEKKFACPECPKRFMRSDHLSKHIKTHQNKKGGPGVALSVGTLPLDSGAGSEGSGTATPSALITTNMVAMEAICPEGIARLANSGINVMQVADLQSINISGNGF
Notes: k-mer, scored over probes, only values ≥0.25
Oligonucleotide | E-score
CACACAAC | 0.28
GTGTGTAA | 0.265
CAGGGGCG | 0.335
ATGTATAC | 0.268

Single results of other studies
Molecule | target | assay | test system | setting | scale | quantity | value
PhoQ, residues 284 288 289 292 302 303 AAQSYM | PhoP, residues 12 14 15 18 19 NNFVT (Escherichia coli, UniProt P23836) | Sort-seq, measured: YFP reporter | E. coli | PhoQ-PhoP variant library, together with: 10 µM Mg2+ | baseline: high Mg2+ state, higher = stronger signaling | fold induction | 20.8

Repeated from above (block 2):
Oligonucleotide | E-score
GTACCCAA | -0.176
